Assay results pooled from the literature.
Each line is one published result; not all experiments were run side by side. ± marks the error that the study gave.

Structure (SMILES) | target or system | assay | system | conditions | how to read | quantity | result
C[n+]1cccc2cc(/C=N/NC(=O)N/N=C/c3ccc4c(ccc[n+]4C)c3)ccc21 | MYC parallel G4 DNA | FRET melting |  | 1 µM, DNA 0.2 µM, together with: duplex DNA competitor 10 µM |  | ΔTm | 3.9 ± 0.2 °C
C=CC(=O)N1[C@@H](c2ccc3c(c2)OCO3)c2[nH]c3ccccc3c2C[C@H]1C(=O)N1CCN(C)CC1 | human cyclin E1 N112C-3xFLAG:CDK2 | co-IP with TMT proteomics, measured: NPM1 |  | concentration not given, P06748 | relative to: wild type DMSO | relative co-enrichment | 100%
O=C(CSc1cccc[n+]1[O-])c1ccccc1Br | Mus musculus | gene silencing, high-content imaging | LDR reporter GFP cells | retest run 2 |  | AC50 | 10 µM
CNS(=O)(=O)Nc1nccc(Cc2c(C)c3ccc(Oc4ncccc4F)cc3oc2=O)c1F | SW1463 | cell viability |  | 7 days |  | IC50 | 0.0015 µM
CC(C)(C)c1cc(-c2ccc3cccnc3n2)nc(-c2ccc3cccnc3n2)c1.[Cl-].[Cl-].[Ru+2].c1cnc2c(c1)ccc1cccnc12 | A-375 | resazurin |  | together with: light 523 nm, 20 mW, 100 J/cm2 |  | EC50 | 170 ± 4 µM
Cc1ncsc1-c1ccc(C(C)NC(=O)C2CC(O)CN2C(=O)C(NC(=O)CCCCCCCCCCN2CCCC(Nc3ncc(Cl)c(Nc4ccccc4S(=O)(=O)C(C)C)n3)C2)C(C)(C)C)cc1 (stereo not shown) | 22Rv1 | RNA-seq, measured: ST6GAL1 mRNA |  | concentration not given | relative to: DMSO | log2 fold change | -1.5
O=C(N/N=C/c1cc[n+](Cc2ccccc2)c2ccccc12)c1cccc(C(=O)N/N=C/c2cc[n+](Cc3ccccc3)c3ccccc23)c1 | MYC parallel G4 DNA | FRET melting |  | 1 µM, DNA 0.2 µM |  | ΔTm | 6.5 ± 0.1 °C
CN1CCCNC(=O)c2cccc(c2)C(=O)NCCCN(C)CCCNc2cccc3c2C(=O)c2cccc(c2C3=O)NCCC1 | SAS | RNA-seq, measured: MT-ATP6 mRNA |  | 1 µM, 6 h | relative to: untreated cells | log2 fold change | -1.09
Nc1ncc(-c2cc(-c3cnn(CC(F)(F)F)c3)ncc2F)nc1C(=O)NC1CNCC(F)C1 (stereo not shown) | EPHA3 | KINOMEscan |  | 1 µM | relative to: DMSO control | remaining binding | 89%
C[n+]1ccc(/C=N/NC(=O)c2ccc3ccc(C(=O)N/N=C/c4cc[n+](C)cc4)nc3n2)cc1 | hp2 hairpin duplex DNA | FRET melting |  | 1 µM |  | ΔTm | 0.2 ± 0.5 °C
COC1CN([C@H]2CC[C@H]([C@@]3(C)Oc4c(Cl)cc(C(=O)NCc5c(SC)cc(C)[nH]c5=O)c(C)c4O3)CC2)C1 |  | RNA-seq, measured: NDST3 | human, whole blood | dose not given, 24 h | relative to: pretreatment baseline | log2 fold change | 4.56
C=CC(=O)Nc1cccc(Cn2ncc3cnc(Nc4cnn(CCOC)c4)nc32)c1 | human IKK-epsilon | KINOMEscan |  | 100 nM | relative to: control | binding | 50%
C[n+]1cc(/C=N/NC(=O)c2cccc(C(=O)N/N=C/c3cc4ccccc4[n+](C)c3)n2)cc2ccccc21 | hp2 hairpin duplex DNA | FRET melting |  | 1 µM |  | ΔTm | 1.2 ± 0.4 °C
COC1OC(C)C(OS(=O)(=O)O)C(OC2OC(C)C(OS(=O)(=O)O)C(OS(=O)(=O)O)C2O)C1O (stereo not shown) |  |  | human plasma | 128 µg/mL | relative to: control | prothrombin time prolongation | 0.95 fold
O=C(N/N=C/c1ccc(C[n+]2ccccc2)cc1)C(=O)N/N=C/c1ccc(C[n+]2ccccc2)cc1 | MYC parallel G4 DNA | FRET melting |  | 1 µM, DNA 0.2 µM |  | ΔTm | 2.9 ± 0.3 °C
Oc1c(/N=N/c2ccccn2)ccc2ccccc12 | Mus musculus | gene silencing, high-content imaging | LDR reporter GFP cells | 30 h, retest run 1 |  | Emax | 14%

Some of these lines once more:
Structure (SMILES) | target or system | assay | system | conditions | how to read | quantity | result
COC1OC(C)C(OS(=O)(=O)O)C(OC2OC(C)C(OS(=O)(=O)O)C(OS(=O)(=O)O)C2O)C1O (stereo not shown) |  |  | human plasma | 128 µg/mL | relative to: control | prothrombin time prolongation | 0.95 fold
